Results collected from several papers.
Numbered parts are unrelated; each lists some results of a single study.
Chain of UniProt Q86UE8 (whole entry, looked up): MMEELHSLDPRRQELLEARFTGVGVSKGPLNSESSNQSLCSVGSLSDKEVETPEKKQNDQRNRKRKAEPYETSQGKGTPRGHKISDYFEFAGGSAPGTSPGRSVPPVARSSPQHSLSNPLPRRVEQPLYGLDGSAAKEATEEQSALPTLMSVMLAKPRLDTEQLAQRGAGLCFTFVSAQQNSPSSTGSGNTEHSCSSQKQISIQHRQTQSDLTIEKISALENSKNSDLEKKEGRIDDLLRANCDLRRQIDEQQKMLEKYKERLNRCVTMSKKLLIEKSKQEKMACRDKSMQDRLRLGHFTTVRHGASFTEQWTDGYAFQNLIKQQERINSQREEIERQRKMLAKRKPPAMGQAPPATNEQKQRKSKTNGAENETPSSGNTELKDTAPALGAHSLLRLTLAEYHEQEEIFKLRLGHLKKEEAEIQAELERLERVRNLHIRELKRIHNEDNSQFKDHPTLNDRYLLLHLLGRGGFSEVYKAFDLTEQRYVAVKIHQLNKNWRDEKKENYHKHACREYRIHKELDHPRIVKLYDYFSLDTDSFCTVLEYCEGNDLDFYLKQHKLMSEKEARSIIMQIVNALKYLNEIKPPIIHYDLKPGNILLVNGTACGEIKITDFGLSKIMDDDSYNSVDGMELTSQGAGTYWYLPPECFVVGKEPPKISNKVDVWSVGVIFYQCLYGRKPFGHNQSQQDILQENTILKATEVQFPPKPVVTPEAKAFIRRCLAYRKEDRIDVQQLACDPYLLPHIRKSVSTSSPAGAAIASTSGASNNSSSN
Chain of UniProt P50750 (whole entry, looked up): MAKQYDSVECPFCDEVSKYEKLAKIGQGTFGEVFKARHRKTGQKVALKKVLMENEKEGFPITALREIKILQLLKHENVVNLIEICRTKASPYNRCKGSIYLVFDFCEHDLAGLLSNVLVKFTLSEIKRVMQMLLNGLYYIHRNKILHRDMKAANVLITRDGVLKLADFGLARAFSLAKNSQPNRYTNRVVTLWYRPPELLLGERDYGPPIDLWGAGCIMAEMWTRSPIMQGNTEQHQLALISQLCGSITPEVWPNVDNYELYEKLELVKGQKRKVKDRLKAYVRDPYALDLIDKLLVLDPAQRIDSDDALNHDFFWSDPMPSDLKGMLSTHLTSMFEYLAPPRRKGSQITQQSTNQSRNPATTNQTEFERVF
Chain of UniProt Q8IVW4 (whole entry, looked up): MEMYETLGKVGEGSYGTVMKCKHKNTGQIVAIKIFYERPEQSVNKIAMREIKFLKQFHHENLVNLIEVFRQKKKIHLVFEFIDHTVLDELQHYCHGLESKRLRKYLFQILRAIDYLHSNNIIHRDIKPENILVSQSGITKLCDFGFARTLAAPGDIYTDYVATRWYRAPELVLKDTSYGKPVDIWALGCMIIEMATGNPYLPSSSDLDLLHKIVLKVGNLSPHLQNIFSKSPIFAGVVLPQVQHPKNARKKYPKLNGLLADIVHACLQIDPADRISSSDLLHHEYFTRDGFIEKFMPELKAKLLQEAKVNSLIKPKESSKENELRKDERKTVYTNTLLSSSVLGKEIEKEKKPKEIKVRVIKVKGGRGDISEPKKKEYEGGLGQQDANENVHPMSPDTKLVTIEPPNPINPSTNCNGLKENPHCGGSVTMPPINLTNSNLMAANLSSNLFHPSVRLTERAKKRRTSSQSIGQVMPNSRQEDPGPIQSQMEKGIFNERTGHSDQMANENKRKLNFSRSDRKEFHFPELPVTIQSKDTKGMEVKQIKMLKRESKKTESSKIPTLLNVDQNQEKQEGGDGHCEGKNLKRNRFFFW
Chain of UniProt Q15569 (whole entry, looked up): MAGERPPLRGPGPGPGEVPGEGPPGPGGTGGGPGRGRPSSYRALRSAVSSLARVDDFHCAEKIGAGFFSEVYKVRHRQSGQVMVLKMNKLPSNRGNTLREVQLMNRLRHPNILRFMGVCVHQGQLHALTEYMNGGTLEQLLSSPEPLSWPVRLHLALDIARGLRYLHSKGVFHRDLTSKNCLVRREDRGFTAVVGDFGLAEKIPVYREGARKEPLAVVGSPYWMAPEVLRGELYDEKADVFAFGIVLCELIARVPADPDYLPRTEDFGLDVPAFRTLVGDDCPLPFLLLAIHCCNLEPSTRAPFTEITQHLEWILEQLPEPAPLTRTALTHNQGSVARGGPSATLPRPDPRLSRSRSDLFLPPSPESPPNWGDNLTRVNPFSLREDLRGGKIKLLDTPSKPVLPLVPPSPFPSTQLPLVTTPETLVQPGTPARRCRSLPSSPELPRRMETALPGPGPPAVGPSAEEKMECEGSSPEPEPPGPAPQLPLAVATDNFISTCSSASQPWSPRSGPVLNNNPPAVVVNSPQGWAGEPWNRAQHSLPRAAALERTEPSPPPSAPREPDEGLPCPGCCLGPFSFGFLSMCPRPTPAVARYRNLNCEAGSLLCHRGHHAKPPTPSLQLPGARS
Chain of UniProt Q6P2M8 (whole entry, looked up): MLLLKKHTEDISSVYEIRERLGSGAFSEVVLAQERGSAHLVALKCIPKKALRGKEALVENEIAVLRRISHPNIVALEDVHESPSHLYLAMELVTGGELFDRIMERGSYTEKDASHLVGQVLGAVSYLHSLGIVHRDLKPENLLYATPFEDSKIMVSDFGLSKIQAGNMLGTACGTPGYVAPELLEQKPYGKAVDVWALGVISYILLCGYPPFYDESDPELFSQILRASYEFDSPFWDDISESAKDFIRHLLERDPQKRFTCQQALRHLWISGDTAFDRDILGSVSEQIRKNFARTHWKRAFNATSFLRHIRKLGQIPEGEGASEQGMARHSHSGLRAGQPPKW
Chain of UniProt P51956 (whole entry, looked up): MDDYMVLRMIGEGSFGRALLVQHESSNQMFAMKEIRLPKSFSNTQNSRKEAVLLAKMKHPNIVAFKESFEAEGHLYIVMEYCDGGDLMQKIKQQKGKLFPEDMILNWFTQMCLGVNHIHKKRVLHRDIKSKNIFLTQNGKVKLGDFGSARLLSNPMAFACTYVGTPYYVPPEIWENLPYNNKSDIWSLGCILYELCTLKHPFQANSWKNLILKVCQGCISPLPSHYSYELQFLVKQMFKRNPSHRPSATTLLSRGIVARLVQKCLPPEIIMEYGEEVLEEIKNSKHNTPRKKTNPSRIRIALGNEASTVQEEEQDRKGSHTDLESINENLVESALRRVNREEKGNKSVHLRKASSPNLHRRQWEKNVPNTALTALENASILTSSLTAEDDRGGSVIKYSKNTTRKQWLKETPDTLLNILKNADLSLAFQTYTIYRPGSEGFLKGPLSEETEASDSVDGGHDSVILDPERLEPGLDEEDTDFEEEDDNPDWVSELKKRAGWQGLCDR
Chain of UniProt Q02156 (whole entry, looked up): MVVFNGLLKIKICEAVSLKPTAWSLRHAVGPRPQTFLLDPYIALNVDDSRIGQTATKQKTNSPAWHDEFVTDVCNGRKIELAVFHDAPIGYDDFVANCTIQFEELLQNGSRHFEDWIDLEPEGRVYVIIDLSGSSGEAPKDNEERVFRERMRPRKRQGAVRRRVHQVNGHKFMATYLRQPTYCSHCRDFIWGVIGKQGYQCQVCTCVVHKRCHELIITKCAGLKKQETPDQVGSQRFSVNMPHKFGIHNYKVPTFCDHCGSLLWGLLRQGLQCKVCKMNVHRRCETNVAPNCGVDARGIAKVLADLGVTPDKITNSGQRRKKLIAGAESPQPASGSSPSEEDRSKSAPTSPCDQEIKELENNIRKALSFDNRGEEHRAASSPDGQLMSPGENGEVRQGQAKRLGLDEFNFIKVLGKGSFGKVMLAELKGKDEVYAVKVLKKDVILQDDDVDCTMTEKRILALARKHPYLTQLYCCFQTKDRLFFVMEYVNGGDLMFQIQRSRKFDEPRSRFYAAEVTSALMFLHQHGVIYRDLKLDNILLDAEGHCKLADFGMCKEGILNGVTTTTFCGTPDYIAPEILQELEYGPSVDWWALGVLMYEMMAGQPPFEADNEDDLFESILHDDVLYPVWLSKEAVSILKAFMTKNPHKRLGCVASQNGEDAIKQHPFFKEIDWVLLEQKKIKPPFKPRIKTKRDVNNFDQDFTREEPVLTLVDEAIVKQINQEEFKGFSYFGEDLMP
Chain of UniProt Q15759 (whole entry, looked up): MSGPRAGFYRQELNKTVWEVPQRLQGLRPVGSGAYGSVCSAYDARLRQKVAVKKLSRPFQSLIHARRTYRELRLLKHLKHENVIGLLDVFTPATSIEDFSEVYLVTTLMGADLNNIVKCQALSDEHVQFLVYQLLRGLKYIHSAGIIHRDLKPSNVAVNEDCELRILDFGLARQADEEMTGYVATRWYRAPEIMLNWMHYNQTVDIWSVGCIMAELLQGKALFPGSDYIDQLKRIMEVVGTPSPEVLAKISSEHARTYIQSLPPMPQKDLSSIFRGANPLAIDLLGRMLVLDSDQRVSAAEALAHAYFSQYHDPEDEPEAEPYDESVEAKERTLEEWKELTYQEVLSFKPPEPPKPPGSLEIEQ
Chain of UniProt P42681 (whole entry, looked up): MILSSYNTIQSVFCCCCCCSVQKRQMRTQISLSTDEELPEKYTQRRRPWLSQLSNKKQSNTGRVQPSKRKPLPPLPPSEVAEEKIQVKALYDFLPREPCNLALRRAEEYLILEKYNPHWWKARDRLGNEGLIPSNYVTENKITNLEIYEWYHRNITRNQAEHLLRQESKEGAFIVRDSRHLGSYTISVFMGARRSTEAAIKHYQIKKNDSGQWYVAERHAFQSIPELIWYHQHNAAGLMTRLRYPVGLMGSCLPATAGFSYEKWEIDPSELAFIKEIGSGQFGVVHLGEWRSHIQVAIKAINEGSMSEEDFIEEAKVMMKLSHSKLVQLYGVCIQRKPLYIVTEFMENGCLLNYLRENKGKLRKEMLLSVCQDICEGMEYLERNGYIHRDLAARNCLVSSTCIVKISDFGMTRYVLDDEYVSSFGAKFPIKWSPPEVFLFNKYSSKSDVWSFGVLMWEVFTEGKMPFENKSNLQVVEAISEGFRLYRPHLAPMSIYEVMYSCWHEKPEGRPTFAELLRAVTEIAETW

Block 1
Compound: COc1ccc(-c2c(Nc3ccccn3)[nH]c3c(C4=CCCCC4)c(-c4ccccc4)nn3c2=O)cc1
Medium: plasma
Route: oral
For LC-MS/MS; human; 200 mg twice daily, 1 h, single dose: “plasma concentration, mean” read 546 ng/mL.
LC-MS/MS; human; 200 mg twice daily, 0.5 h — “plasma concentration, mean”: 10300 ng/mL.
The “plasma concentration, mean” was 11100 ng/mL (LC-MS/MS; human; 200 mg twice daily, 4 h).
The “plasma concentration, mean” was 3710 ng/mL (human patients; 100 mg once daily, 8 h, cycle 1).
The “plasma concentration, mean” was 118 ng/mL (LC-MS/MS; human; 200 mg twice daily, 0.5 h, single dose).
The “plasma concentration, mean” was 300 ng/mL (cancer patients; 150 mg, 72 h post-dose, single dose).
LC-MS/MS; human; 50 mg once daily, 24 h, cycle 1 — “plasma concentration, mean”: 1140 ng/mL.
For cancer patients; 200 mg, 48 h post-dose, single dose: “plasma concentration, mean” read 698 ng/mL.

Block 2
Compound: FC(F)(F)c1ccc(/C=C/c2nc(COc3ccc(CCCCn4ccnn4)cc3)co2)cc1
Read-out: enzyme activity
Action: inhibitor
Concentration: 0.5 µM
Reference: control
Tyrosine-protein kinase TXK (TXK, Homo sapiens, UniProt P42681) — remaining activity: 101%.
The remaining activity was 105% (Ribosomal protein S6 kinase alpha-4 (RPS6KA4, Homo sapiens, UniProt O75676)).
The remaining activity was 106% (Vascular endothelial growth factor receptor 2 (KDR, Homo sapiens, UniProt P35968)).
For cGMP-dependent protein kinase 2 (PRKG2, Homo sapiens, UniProt Q13237): remaining activity read 89.9%.
The remaining activity was 105% (Cyclin-dependent kinase 9, with cyclin K (CDK9, Homo sapiens, UniProt P50750)).
The remaining activity was 102% (G protein-coupled receptor kinase 4 (GRK4, Homo sapiens, UniProt P32298)).
It gave 96.6% for remaining activity (Calcium/calmodulin-dependent protein kinase type 1B (PNCK, Homo sapiens, UniProt Q6P2M8)).
The remaining activity was 102% (Mitogen-activated protein kinase 11 (MAPK11, Homo sapiens, UniProt Q15759)).
Myosin-IIIb (MYO3B, Homo sapiens, UniProt Q8WXR4) — remaining activity: 93.7%.
Dual specificity protein kinase CLK4 (CLK4, Homo sapiens, UniProt Q9HAZ1) — remaining activity: 101%.
The remaining activity was 97.9% (MAP/microtubule affinity-regulating kinase 4 (MARK4, Homo sapiens, UniProt Q96L34)).
The remaining activity was 100% (Serine/threonine-protein kinase Nek3 (NEK3, Homo sapiens, UniProt P51956)).
It gave 98.6% for remaining activity (Serine/threonine-protein kinase tousled-like 2 (TLK2, Homo sapiens, UniProt Q86UE8)).
Hepatocyte growth factor receptor (MET, Homo sapiens, UniProt P08581) — remaining activity: 95.1%.

Block 3
SMILES: C[C@@H]1CN(c2cc(-c3nn(C)c4ccc(OC5(C)CC5)cc34)ncn2)C[C@H](C)O1
Concentration: 1 µM
The remaining binding was 100% (Phosphatidylinositol 3-kinase C2 domain-containing subunit gamma (PIK3C2G, Homo sapiens, UniProt O75747); cell-free assay, competition with immobilised ligand).
It gave 100% for remaining binding (Serine/threonine-protein kinase MRCK gamma (CDC42BPG, Homo sapiens, UniProt Q6DT37); competition binding).
For Mast/stem cell growth factor receptor Kit (KIT, Homo sapiens, UniProt P10721, V559D); cell-free assay, competition with immobilised ligand: remaining binding read 100%.
It gave 97% for remaining binding (Serine/threonine-protein kinase tousled-like 2 (TLK2, Homo sapiens, UniProt Q86UE8); cell-free assay, competition with immobilised ligand).
It gave 100% for remaining binding (Protein kinase C epsilon type (PRKCE, Homo sapiens, UniProt Q02156); cell-free assay, competition with immobilised ligand).
For Serine/threonine-protein kinase Chk2 (CHEK2, Homo sapiens, UniProt O96017); cell-free assay, competition with immobilised ligand: remaining binding read 97%.
The remaining binding was 88% (Cyclin-dependent kinase-like 3 (CDKL3, Homo sapiens, UniProt Q8IVW4); cell-free assay, competition with immobilised ligand).
It gave 100% for remaining binding (Dual specificity testis-specific protein kinase 1 (TESK1, Homo sapiens, UniProt Q15569); cell-free assay, competition with immobilised ligand).
NUAK family SNF1-like kinase 1 (NUAK1, Homo sapiens, UniProt O60285); cell-free assay, competition with immobilised ligand — remaining binding: 100%.
Ribosomal protein S6 kinase alpha-6, N-terminal kinase domain (RPS6KA6, Homo sapiens, UniProt Q9UK32); cell-free assay, competition with immobilised ligand — remaining binding: 78%.
It gave 100% for remaining binding (Tyrosine-protein kinase FRK (FRK, Homo sapiens, UniProt P42685); cell-free assay, competition with immobilised ligand).

Block 4
Cell line: A-375
Concentration: 100 µM
Time: 18 h
With `C=CCN1CCCC1CNC(=O)c1cc2[nH]nnc2cc1OC` (stereo not drawn) the viability was 91.3%.
`CC[C@H](C)[C@H](N)C(=O)O` has a viability of 97.5%.
`CC1CC(OC(=O)C(O)c2ccccc2)CC(C)(C)C1` (stereo not drawn) has a viability of 8.03%.
With `COC(=O)CCc1ccc(OCC(O)CNC(C)C)cc1` (stereo not drawn) the viability was 100%.
With `CCCCC(=O)O[C@]1(C(=O)CO)CC[C@H]2[C@@H]3CCC4=CC(=O)CC[C@]4(C)[C@H]3[C@@H](O)C[C@@]21C` the viability was 52.8%.
`CC(COc1ccccc1)NC(C)C(O)c1ccc(O)cc1` (stereo not drawn) has a viability of 102%.
With `C[C@]12C=CC(=O)C=C1CC[C@@H]1[C@@H]2C(=O)C[C@@]2(C)[C@H]1CC[C@]2(O)C(=O)CO` the viability was 103%.
`Cc1ccc(S(=O)(=O)NC(=O)NN2CC3CCC[C@@H]3C2)cc1` (stereo in doubt) has a viability of 109%.
`O=C(O)CCC(=O)c1ccc(-c2ccccc2)cc1` has a viability of 103%.

For quick reference, copied from above (block 3):
It gave 100% for remaining binding (Dual specificity testis-specific protein kinase 1 (TESK1, Homo sapiens, UniProt Q15569); cell-free assay, competition with immobilised ligand).
NUAK family SNF1-like kinase 1 (NUAK1, Homo sapiens, UniProt O60285); cell-free assay, competition with immobilised ligand — remaining binding: 100%.
Ribosomal protein S6 kinase alpha-6, N-terminal kinase domain (RPS6KA6, Homo sapiens, UniProt Q9UK32); cell-free assay, competition with immobilised ligand — remaining binding: 78%.
It gave 100% for remaining binding (Tyrosine-protein kinase FRK (FRK, Homo sapiens, UniProt P42685); cell-free assay, competition with immobilised ligand).
